Published values gathered from unrelated publications.
Numbered parts are unrelated; each lists some results of a single study.
Chain of UniProt P10721 (whole entry, unmodified, looked up): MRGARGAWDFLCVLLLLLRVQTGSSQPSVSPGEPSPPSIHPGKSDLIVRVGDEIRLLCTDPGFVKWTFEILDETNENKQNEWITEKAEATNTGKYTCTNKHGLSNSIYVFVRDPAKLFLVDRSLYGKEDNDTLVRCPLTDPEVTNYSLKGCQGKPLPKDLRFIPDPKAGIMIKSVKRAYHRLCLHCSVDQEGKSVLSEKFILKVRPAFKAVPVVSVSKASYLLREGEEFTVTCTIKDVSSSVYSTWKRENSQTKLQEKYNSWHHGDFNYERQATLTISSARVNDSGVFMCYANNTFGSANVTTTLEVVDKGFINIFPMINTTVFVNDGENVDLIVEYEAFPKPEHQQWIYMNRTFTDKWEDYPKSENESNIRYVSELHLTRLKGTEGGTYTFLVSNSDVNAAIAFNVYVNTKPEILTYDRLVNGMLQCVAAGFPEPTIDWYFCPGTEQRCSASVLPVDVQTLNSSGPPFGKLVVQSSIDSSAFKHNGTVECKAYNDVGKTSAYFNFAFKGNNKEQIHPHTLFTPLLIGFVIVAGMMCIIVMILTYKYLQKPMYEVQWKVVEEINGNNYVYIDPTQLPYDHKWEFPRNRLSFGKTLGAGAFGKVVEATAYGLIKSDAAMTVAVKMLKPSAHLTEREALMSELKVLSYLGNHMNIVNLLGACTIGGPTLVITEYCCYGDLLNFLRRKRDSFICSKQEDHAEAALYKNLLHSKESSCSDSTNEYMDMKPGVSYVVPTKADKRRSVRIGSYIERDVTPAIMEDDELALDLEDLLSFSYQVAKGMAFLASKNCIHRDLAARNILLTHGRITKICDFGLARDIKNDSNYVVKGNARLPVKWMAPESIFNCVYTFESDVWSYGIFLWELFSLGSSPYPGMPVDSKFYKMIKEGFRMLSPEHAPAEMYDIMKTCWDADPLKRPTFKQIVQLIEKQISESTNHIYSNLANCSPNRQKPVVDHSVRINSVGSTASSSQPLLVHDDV
Chain of UniProt P0C1S8 (whole entry, looked up): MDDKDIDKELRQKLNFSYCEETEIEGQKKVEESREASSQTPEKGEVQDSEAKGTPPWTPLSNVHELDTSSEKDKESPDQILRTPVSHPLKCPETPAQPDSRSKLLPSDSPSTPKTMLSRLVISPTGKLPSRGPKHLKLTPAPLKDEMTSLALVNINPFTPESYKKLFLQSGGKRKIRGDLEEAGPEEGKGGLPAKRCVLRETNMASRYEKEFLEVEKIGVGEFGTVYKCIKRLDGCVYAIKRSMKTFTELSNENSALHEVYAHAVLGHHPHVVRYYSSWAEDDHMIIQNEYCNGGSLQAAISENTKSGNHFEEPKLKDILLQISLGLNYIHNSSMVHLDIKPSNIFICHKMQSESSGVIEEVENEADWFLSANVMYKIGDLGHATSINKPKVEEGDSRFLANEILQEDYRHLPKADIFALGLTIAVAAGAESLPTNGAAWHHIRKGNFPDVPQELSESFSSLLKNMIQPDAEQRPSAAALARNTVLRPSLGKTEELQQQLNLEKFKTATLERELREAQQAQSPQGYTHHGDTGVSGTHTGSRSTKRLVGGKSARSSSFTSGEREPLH
Chain of UniProt Q9P286 (whole entry, looked up): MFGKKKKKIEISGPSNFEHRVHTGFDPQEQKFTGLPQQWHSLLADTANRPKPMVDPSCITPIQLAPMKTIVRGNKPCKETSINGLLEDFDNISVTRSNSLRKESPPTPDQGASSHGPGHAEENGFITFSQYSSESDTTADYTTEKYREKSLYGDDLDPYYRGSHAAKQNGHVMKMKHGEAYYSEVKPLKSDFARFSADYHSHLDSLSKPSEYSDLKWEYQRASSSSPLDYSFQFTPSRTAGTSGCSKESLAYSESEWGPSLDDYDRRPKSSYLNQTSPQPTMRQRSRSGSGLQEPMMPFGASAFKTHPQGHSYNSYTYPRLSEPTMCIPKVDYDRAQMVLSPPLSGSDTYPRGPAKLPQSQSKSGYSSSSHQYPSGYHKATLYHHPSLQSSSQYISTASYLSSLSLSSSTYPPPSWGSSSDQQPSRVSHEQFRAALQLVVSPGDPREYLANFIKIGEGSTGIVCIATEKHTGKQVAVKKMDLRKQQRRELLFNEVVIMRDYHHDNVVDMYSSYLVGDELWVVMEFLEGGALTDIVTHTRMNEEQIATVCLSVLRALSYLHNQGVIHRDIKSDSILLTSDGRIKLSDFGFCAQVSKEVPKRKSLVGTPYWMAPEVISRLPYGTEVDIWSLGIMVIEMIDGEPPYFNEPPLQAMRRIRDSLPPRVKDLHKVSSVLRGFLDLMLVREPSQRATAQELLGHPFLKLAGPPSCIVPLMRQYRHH
Chain of UniProt P11309 (whole entry, looked up): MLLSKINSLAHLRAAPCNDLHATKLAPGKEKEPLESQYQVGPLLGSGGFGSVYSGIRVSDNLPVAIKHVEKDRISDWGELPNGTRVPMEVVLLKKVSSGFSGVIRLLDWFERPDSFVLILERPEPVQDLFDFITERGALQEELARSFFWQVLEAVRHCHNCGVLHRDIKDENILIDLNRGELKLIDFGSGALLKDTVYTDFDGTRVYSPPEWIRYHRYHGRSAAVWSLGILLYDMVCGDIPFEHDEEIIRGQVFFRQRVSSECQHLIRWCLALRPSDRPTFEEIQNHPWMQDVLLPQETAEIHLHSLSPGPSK
Chain of UniProt P29320 (whole entry, looked up): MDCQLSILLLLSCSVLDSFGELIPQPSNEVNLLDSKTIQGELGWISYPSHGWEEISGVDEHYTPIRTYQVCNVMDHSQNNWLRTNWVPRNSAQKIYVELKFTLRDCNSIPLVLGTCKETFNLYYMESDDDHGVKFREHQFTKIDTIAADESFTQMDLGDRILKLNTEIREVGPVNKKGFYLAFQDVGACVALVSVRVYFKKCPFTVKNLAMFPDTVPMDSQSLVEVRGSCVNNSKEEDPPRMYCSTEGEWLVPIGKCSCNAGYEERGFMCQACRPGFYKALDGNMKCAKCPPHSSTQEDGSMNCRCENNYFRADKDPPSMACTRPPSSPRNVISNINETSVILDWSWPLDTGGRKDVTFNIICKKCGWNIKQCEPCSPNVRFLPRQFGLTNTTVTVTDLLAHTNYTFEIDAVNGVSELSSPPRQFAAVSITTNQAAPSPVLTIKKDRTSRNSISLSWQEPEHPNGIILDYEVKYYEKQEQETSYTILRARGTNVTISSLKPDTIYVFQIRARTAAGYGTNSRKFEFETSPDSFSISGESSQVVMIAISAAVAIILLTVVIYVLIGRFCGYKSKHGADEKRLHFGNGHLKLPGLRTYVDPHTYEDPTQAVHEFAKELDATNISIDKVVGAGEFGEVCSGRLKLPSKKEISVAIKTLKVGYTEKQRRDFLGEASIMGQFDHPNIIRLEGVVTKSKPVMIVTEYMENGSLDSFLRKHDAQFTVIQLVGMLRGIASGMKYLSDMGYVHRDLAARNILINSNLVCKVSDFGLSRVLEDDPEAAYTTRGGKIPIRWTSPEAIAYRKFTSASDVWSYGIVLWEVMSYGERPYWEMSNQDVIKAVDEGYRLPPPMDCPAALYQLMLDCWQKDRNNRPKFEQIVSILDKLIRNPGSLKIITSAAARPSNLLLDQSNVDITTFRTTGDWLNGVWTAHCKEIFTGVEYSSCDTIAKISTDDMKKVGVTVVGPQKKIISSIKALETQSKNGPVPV
Chain of UniProt P41240 (whole entry, looked up): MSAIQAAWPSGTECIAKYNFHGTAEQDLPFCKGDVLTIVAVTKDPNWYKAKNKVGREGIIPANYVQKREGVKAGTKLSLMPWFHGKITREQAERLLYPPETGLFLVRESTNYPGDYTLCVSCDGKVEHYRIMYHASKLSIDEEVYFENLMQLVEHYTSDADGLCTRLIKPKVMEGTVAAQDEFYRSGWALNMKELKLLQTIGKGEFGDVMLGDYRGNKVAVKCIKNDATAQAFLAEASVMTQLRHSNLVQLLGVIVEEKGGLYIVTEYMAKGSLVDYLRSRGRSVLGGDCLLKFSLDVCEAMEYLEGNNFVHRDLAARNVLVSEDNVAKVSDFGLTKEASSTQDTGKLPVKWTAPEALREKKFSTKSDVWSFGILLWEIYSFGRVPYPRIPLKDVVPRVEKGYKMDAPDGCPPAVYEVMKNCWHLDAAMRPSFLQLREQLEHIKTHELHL
Chain of UniProt Q9H3Y6 (whole entry, looked up): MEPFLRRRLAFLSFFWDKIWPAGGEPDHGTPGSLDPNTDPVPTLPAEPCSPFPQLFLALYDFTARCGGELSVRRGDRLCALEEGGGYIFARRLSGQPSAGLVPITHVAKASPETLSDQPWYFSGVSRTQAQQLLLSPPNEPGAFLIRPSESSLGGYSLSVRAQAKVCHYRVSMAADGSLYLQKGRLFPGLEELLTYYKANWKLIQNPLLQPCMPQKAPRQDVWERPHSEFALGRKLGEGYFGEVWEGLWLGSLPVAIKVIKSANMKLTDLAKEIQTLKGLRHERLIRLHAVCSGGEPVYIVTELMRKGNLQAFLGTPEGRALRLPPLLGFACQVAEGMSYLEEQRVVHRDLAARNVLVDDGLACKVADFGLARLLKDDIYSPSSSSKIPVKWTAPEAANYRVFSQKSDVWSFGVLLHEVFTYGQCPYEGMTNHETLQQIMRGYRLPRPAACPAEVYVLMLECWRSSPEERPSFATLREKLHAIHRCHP
Chain of UniProt Q9BXA7 (whole entry, looked up): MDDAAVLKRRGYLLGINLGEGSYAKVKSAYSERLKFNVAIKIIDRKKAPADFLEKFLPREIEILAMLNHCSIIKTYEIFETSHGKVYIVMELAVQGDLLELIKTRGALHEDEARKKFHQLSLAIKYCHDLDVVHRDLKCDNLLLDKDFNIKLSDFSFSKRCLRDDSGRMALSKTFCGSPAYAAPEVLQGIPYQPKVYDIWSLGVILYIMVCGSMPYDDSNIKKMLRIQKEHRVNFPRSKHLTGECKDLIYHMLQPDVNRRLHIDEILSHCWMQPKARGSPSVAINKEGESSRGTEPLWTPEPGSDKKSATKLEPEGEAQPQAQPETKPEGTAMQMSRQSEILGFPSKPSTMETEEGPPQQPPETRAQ

Series 1
Technique: PRP chromatography estimate
Medium: 1,9-decadiene/PBS
pH: 7.4
`CC(C)C[C@@H]1NC(=O)[C@H](CC(C)C)NC(=O)[C@H](CC(C)C)NC(=O)[C@H](Cc2cscn2)NC(=O)[C@@H](CCC(=O)N2CCCC2)NC(=O)[C@H](Cc2cscn2)NC(=O)[C@H](C)NC1=O` has a logD of -2.68.
With `CC(C)C[C@@H]1NC(=O)[C@H](C)NC(=O)[C@@H](CC(C)C)NC(=O)[C@@H](CC(C)C)NC(=O)[C@H](C)NC(=O)[C@H](CC(C)C)NC(=O)[C@@H](CC(C)C)NC1=O` the logD was 0.408.
With `CCOC(=O)[C@@H]1CSCC(=O)N[C@@H](CC)C(=O)N(C)[C@@H](C)C(=O)N[C@H](CC(C)C)C(=O)N2CCC[C@@H]2C(=O)N(CC(C)C)CC(=O)N[C@@H](CC(C)C)C(=O)N(C)[C@@H](C)C(=O)N[C@@H](CC(C)C)C(=O)N1C` the logD was 0.838.
The logD of `CC(C)C[C@@H]1NC(=O)[C@H](CC(C)C)NC(=O)[C@@H](CC(C)C)NC(=O)[C@H](C(C)C)NC(=O)[C@H](C)NC(=O)[C@@H](CC(C)C)NC(=O)[C@H](C)NC1=O` is reported as -0.728.
`CC(C)C[C@@H]1NC(=O)[C@H](CC(C)C)NC(=O)[C@@H](C(C)C)NC(=O)[C@@H](C)NC(=O)[C@H](C)NC(=O)[C@@H](CC(C)C)NC(=O)[C@H](C)NC1=O` has a logD of -2.47.

Series 2
SMILES: CCS(=O)(=O)c1cc2cc(C[C@@](O)(CC(C)(C)c3ccc(F)cc3C(N)=O)C(F)(F)F)[nH]c2cn1
Technique: competition with immobilised ligand
Tested at: 1 µM
The remaining binding was 98% (MAPK3 (Homo sapiens, UniProt P27361); cell-free assay).
The remaining binding was 100% (KIT (Homo sapiens, UniProt P10721, L576P); cell-free assay).
The remaining binding was 61% (Tyrosine-protein kinase ABL1, phosphorylated (ABL1, Homo sapiens, UniProt P00519, F317L); cell-free assay).
It gave 100% for remaining binding (EGFR (Homo sapiens, UniProt P00533, G719S); cell-free assay).
For WEE2 (Homo sapiens, UniProt P0C1S8); cell-free assay: remaining binding read 95%.
For MAP3K1 (Homo sapiens, UniProt Q13233); cell-free assay: remaining binding read 51%.
The remaining binding was 99% (PRKACB (Homo sapiens, UniProt P22694); cell-free assay).
PIM1 (Homo sapiens, UniProt P11309); cell-free assay — remaining binding: 97%.
It gave 96% for remaining binding (RET (Homo sapiens, UniProt P07949, V804L); cell-free assay).
For FGR (Homo sapiens, UniProt P09769); cell-free assay: remaining binding read 88%.
The remaining binding was 100% (MAST1 (Homo sapiens, UniProt Q9Y2H9); cell-free assay).
For EGFR (Homo sapiens, UniProt P00533); cell-free assay: remaining binding read 96%.
The remaining binding was 85% (EPHA3 (Homo sapiens, UniProt P29320); cell-free assay).
SRMS (Homo sapiens, UniProt Q9H3Y6); cell-free assay — remaining binding: 72%.
It gave 82% for remaining binding (CSK (Homo sapiens, UniProt P41240); cell-free assay).
PRKACA (Homo sapiens, UniProt P17612); cell-free assay — remaining binding: 100%.
It gave 85% for remaining binding (PIP4K2B (Homo sapiens, UniProt P78356); cell-free assay).
ERBB2 (Homo sapiens, UniProt P04626); cell-free assay — remaining binding: 100%.
For CDK16 (Homo sapiens, UniProt Q00536); cell-free assay: remaining binding read 78%.
The remaining binding was 79% (Tyrosine-protein kinase ABL1, non-phosphorylated (ABL1, Homo sapiens, UniProt P00519, Q252H); cell-free assay).
KIT (Homo sapiens, UniProt P10721, T670I/V559D); cell-free assay — remaining binding: 100%.
It gave 0% for remaining binding (TLK1 (Homo sapiens, UniProt Q9UKI8); cell-free assay).
It gave 80% for remaining binding (STK17A (Homo sapiens, UniProt Q9UEE5); cell-free assay).
For Tyrosine-protein kinase ABL1, non-phosphorylated (ABL1, Homo sapiens, UniProt P00519, F317I); binding: remaining binding read 78%.

Series 3
SMILES: O=C(Nc1cnn(-c2csc(C(=O)NC3COC3)c2)c1)Nc1ccccc1Cl
Observed: enzyme activity
Tested at: 5 µM
For EPHA2 (Homo sapiens, UniProt P29317); reference: untreated control: remaining activity read 95.4%.
MAP3K9 (Homo sapiens, UniProt P80192); reference: untreated control — remaining activity: 94.2%.
It gave 96.7% for remaining activity (MASTL (Homo sapiens, UniProt Q96GX5); inhibitor).
The remaining activity was 93.8% (INSRR (Homo sapiens, UniProt P14616); reference: untreated control).
The remaining activity was 96.2% (CDC42BPA (Homo sapiens, UniProt Q5VT25); reference: untreated control).
The remaining activity was 90.7% (PAK5 (Homo sapiens, UniProt Q9P286); reference: untreated control).
TSSK1B (Homo sapiens, UniProt Q9BXA7); reference: untreated control — remaining activity: 97.5%.

Series 4
Target: panel of 300 human kinases
Tested at: 0.5 µM
Direction: higher = more selective
`COc1cc2ncnc(Nc3cccc(Cl)c3)c2cc1OC` has a Gini score of 0.6.
With `CCOc1nc(NC(=O)Cc2cc(OC)ccc2OC)cc(N)c1C#N` the Gini score was 0.73.
`O=C1NC(=O)C(c2c[nH]c3ccccc23)=C1c1c[nH]c2ccccc12` has a Gini score of 0.65.
`Cc1cncc2cccc(S(=O)(=O)N3CCCN(C(=O)CN)C[C@@H]3C)c12` gave a Gini score of 0.74.
The Gini score of `COc1cc(OC)c(C=C2C(O)=Nc3ccccc32)c(OC)c1` is reported as 0.66.
`CC(C)(C)n1nc(Cc2cccc3ccccc23)c2c(N)ncnc21` has a Gini score of 0.67.

Series 5
Host: mouse
Medium: microsomes or S9
Tested at: 2 µM
Time: 0.5 h
`Clc1ccccc1C1NCCc2c1[nH]c1ccccc21` (stereo not drawn) gave a remaining compound of 19.5%.
For `Cc1nc(S(=O)(=O)NCc2c3c(nn2C)CCC3)cn1C`, the remaining compound was 52.2%.
`CC(C)N(CCNC(=O)c1ccc2c(c1)N(Cc1cccc(Cl)c1)C(=O)c1ccccc1[S+]2[O-])Cc1ccccc1` (stereo not drawn) has a remaining compound of 0.0422%.
With `Cc1nnc(C)n1/N=C/c1ccc(OCC(N)=O)cc1` the remaining compound was 49.5%.
`CCOc1ccc(CNC(=O)C(NS(=O)(=O)c2ccc3c(c2)CCCC(=O)N3)C(C)C)cc1` (stereo not drawn) has a remaining compound of 65%.

Series 6
Cell line: A-375
Tested at: 100 µM
Time: 18 h
The viability of `CCc1oc2ccccc2c1C(=O)c1cc(Br)c(O)c(Br)c1` is reported as 43%.
`CC(C)Cc1ccc(C(C)C(=O)O)cc1` (stereo not drawn) gave a viability of 104%.
With `NCCS` the viability was 99.8%.
`NS(=O)(=O)c1cc2c(cc1Cl)NCNS2(=O)=O` gave a viability of 88.2%.
With `N=C(N)c1ccc2cc(OC(=O)c3ccc(N=C(N)N)cc3)ccc2c1` the viability was 88.6%.
For `CC(NCCC(c1ccccc1)c1ccccc1)c1ccccc1` (stereo not drawn), the viability was 8.3%.
With `C[C@H](CS)C(=O)N1CCC[C@H]1C(=O)O` the viability was 102%.

Excerpt of the above (series 4):
`COc1cc2ncnc(Nc3cccc(Cl)c3)c2cc1OC` has a Gini score of 0.6.
`O=C1NC(=O)C(c2c[nH]c3ccccc23)=C1c1c[nH]c2ccccc12` has a Gini score of 0.65.
With `CCOc1nc(NC(=O)Cc2cc(OC)ccc2OC)cc(N)c1C#N` the Gini score was 0.73.
`CC(C)(C)n1nc(Cc2cccc3ccccc23)c2c(N)ncnc21` has a Gini score of 0.67.
`Cc1cncc2cccc(S(=O)(=O)N3CCCN(C(=O)CN)C[C@@H]3C)c12` gave a Gini score of 0.74.
The Gini score of `COc1cc(OC)c(C=C2C(O)=Nc3ccccc32)c(OC)c1` is reported as 0.66.
